Measurements of several laboratories.
Each line is one published result; not all experiments were run side by side. Several values in a cell are separate wells, animals, samples, runs or records. Numbers after ± are the reported error.
Chain of UniProt Q9ULC6 (whole entry, looked up): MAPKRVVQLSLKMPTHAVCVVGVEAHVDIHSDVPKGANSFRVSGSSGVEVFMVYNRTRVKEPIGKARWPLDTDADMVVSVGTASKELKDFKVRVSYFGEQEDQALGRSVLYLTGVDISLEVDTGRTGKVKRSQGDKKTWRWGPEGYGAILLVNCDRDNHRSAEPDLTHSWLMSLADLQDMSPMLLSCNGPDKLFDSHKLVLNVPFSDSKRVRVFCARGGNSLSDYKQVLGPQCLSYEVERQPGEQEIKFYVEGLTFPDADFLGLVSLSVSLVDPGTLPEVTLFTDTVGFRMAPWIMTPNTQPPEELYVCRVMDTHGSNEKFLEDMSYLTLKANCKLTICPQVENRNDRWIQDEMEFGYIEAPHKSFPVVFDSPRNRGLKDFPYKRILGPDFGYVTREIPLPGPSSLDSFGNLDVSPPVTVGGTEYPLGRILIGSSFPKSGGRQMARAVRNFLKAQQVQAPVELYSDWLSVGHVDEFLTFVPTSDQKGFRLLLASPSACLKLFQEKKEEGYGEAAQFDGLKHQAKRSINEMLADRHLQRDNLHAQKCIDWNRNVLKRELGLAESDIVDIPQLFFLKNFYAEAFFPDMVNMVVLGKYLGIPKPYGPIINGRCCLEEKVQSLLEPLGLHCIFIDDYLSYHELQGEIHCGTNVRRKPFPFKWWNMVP
Chain of UniProt Q13163 (whole entry, looked up): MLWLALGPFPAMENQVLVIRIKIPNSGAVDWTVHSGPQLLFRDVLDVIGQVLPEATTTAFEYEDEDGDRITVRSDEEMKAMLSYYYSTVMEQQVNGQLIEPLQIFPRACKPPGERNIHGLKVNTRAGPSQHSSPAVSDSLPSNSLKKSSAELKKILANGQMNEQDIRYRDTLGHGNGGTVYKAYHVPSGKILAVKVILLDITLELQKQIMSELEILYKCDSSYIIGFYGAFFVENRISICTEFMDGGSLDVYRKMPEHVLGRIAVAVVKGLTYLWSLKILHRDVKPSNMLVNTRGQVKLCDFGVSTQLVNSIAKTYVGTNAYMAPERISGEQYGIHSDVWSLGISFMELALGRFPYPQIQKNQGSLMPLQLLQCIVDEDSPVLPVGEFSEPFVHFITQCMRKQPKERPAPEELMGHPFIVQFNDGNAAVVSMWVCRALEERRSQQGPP
Chain of UniProt Q9UM73 (whole entry, looked up): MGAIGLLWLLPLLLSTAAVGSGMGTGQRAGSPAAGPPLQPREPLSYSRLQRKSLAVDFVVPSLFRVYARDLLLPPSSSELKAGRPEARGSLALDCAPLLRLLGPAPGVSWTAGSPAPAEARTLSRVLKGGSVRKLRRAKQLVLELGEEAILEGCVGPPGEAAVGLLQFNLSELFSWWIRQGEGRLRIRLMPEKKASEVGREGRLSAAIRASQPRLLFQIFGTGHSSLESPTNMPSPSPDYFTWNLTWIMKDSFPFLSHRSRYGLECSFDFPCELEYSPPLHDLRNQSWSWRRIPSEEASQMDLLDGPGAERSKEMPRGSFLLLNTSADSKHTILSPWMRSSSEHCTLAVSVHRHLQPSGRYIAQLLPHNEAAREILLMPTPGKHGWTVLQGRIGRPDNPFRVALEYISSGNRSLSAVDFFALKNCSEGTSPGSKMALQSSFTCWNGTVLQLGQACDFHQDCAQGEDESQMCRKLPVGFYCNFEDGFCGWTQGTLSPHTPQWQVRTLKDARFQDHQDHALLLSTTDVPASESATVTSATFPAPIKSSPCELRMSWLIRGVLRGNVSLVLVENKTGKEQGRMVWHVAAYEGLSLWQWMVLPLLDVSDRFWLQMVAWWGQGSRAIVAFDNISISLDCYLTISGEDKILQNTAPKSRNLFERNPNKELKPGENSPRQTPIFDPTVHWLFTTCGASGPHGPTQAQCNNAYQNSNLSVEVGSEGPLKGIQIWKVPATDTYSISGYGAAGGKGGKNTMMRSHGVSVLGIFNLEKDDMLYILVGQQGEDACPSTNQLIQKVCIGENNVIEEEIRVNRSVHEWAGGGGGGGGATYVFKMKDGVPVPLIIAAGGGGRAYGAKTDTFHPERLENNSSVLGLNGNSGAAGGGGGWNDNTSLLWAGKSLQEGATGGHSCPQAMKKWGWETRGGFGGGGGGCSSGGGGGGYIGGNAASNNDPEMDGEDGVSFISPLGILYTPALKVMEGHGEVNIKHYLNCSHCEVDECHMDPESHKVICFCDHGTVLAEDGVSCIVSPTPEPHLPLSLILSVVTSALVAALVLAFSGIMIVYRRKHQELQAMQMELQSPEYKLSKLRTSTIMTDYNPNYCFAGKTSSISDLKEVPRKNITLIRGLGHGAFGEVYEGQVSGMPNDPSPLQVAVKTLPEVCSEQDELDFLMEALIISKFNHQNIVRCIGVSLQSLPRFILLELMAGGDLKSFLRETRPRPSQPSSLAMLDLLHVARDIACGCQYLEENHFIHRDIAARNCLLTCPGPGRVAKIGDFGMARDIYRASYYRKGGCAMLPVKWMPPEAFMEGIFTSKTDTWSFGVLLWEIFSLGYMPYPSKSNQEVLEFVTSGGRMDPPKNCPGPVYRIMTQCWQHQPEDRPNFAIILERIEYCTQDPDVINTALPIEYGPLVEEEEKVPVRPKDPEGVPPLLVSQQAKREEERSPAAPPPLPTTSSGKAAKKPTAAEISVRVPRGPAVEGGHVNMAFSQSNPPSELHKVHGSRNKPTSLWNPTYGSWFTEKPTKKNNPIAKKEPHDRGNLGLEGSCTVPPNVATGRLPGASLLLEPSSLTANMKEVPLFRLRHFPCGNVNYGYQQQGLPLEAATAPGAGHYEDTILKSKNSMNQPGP
Chain of UniProt P62937 (whole entry, looked up): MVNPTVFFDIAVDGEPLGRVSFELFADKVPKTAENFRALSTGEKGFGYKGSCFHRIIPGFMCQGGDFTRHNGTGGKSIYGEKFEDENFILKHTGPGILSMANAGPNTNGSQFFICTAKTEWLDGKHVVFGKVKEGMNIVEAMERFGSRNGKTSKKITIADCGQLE
Chain of UniProt Q06418 (whole entry, looked up): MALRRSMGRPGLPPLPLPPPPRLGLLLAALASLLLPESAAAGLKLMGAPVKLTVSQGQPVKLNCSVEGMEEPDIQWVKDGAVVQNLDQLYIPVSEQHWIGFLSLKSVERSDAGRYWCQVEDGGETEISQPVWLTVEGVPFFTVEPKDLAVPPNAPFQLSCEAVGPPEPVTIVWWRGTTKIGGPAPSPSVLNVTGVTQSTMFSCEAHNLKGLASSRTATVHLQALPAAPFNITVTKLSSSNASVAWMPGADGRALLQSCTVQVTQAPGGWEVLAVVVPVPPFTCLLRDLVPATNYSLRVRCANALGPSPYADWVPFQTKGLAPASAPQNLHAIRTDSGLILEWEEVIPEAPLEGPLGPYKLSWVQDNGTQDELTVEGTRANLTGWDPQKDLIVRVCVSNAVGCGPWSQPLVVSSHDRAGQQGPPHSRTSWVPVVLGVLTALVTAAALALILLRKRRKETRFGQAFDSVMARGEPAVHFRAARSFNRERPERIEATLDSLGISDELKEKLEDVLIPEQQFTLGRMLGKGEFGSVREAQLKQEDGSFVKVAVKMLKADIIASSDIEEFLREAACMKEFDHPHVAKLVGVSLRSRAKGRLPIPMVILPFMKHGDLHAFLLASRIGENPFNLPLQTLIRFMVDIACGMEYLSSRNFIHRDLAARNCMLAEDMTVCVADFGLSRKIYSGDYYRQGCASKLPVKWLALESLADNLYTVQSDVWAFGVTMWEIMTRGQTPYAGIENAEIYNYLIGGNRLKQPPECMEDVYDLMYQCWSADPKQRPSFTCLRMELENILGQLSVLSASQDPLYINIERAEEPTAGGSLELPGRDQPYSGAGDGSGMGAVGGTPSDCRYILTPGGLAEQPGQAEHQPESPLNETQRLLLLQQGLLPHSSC
Chain of UniProt P33533 (whole entry, looked up): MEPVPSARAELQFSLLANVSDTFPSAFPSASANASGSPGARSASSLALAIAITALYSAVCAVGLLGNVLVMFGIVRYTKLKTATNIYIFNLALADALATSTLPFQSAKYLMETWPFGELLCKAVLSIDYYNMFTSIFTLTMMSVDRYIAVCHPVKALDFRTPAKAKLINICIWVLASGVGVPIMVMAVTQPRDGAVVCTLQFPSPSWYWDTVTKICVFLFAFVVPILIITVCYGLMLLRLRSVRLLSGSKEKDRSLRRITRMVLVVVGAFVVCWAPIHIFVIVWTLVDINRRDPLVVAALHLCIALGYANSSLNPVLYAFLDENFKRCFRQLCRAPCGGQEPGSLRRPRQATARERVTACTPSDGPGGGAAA
Chain of UniProt Q15059 (whole entry, unmodified, looked up): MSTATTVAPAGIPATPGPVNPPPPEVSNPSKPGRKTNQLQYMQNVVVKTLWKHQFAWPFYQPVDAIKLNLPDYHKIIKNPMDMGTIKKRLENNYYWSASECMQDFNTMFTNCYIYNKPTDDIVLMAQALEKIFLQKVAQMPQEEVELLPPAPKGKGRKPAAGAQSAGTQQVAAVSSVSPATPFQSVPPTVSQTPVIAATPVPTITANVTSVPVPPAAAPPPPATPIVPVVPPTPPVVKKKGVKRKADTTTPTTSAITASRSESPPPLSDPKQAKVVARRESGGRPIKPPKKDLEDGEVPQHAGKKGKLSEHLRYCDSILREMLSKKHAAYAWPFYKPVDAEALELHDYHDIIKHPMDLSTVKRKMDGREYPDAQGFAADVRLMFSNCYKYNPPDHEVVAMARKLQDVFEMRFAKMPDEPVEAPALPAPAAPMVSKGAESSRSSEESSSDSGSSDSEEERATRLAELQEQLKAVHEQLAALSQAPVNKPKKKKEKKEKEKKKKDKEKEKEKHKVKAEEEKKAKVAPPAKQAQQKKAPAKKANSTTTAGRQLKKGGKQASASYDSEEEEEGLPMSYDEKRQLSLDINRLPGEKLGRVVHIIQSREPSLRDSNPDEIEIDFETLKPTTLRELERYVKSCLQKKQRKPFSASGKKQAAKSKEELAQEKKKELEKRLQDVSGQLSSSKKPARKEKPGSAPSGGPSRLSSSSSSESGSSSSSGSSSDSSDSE

Compound	target or system	assay	system	setting	how to read	quantity	result
Cc1cc(C(=O)Nc2nc3cccc(C)c3n2[C@H]2CCCCN(C(=O)/C=C/CN(C)C)C2)ccn1	Trypanosoma brucei brucei	–	2T1 CLK1 overexpressing	10 µM, compound pretreated	reference: maximum	survival	16.8% and 16.5% and 26% and 22.3%
Cc1sc2c(c1C)C(c1ccc(Cl)cc1)=N[C@@H](CC(=O)OC(C)(C)C)c1nnc(C)n1-2	Bromodomain-containing protein 3, BD2 (BRD3, Homo sapiens, UniProt Q15059)	isothermal titration calorimetry	–	15 °C, reverse titration	–	ΔG	-20.6 kJ/mol
CC[C@H](C)[C@H](NC(=O)[C@H](CO)NC(=O)[C@H](Cc1ccc(O)cc1)NC(=O)[C@H](Cc1ccc(O)cc1)NC(=O)[C@H](CC(N)=O)NC(=O)CNC(=O)[C@H](CO)NC(=O)[C@H](Cc1ccc(O)cc1)NC(=O)[C@H](CO)NC(=O)[C@H](CO)NC(=O)[C@H](CC(N)=O)NC(=O)COCCOCCNC(=O)CN1CCN(CC(=O)O)CCN(CC(=O)O)CCN(CC(=O)O)CC1)C(=O)N[C@@H](CC(C)C)C(N)=O [copper-64 labelled]	–	dynamic PET	KPC mouse, pancreatic cancer model, tumor	intravenous, 1.1 min, 49 days after tamoxifen	–	tumour uptake	13.5 %ID/mL
CN(C)CCCSC(=S)N1CCN(C(=O)/C=C/c2coc3ccccc3c2=O)CC1	Nucleoprotein (N, Tomato spotted wilt virus, UniProt P25999, R94A/Y184A)	binding, microscale thermophoresis	–	15.62 µM	dose series	MST response	0.907 a.u.
N[C@H](C(=O)N1CCCC1)C1CCN(c2nccc3c(-c4ncc(Cl)cc4Cl)cccc23)CC1	PADI1 (Homo sapiens, UniProt Q9ULC6)	enzyme activity	–	0.01573 µM, together with: Ca2+ 0.25 mM	–	kcat	0.365 s⁻¹ and 0.378 s⁻¹
CCCC[C@H]1CNCCN1C[C@@H]1CCCN1C[C@H](CC1CCCCC1)N1CCN(CCc2ccc(Cl)c(Cl)c2)[C@H]([C@@H](C)O)C1	Oprd1 (Rattus norvegicus, UniProt P33533)	radioligand binding	rat brain membranes	500 nM, pH 7.5, 25 °C, together with: 2 nM [3H]DPDPE	–	remaining binding	90.9%
Cc1ccc(N2CC3CCC(C2)N3C)cc1C(=O)N[C@H](C)c1cc(-c2cnn(C)c2)nc2ccccc12	Cathepsin K (CTSK, Homo sapiens, UniProt P43235)	enzyme activity, inhibitor	–	30 µM	–	remaining activity	87.9%
O=C(O)c1cccc(CP(=O)(O)O)n1	Beta-lactamase L1 (Stenotrophomonas maltophilia, UniProt P52700)	enzyme activity, inhibitor	–	together with: nitrocefin	–	koff	0.003 ± 0.0005 s⁻¹
C[C@@H]1NC(=O)[C@H](CCCNC(=N)N)NC(=O)[C@H](Cc2ccc3ccccc3c2)NC(=O)[C@H]2CCCCN2C(=O)[C@@H]([C@H](C)O)NC(=O)[C@H](Cc2ccc(F)cc2)NC(=O)[C@@H](Cc2ccc(F)cc2)NC(=O)c2cc3cc(c2)C(=O)NC[C@H](NC(=O)[C@@H](Cc2ccccc2)NC1=O)C(=O)N[C@@H](Cc1ccccc1)C(=O)N[C@@H](Cc1ccc2ccccc2c1)C(=O)N[C@@H](CCCNC(=N)N)C(=O)N[C@@H](CCCNC(=N)N)C(=O)N[C@@H](CCCNC(=N)N)C(=O)N[C@@H](CCCNC(=N)N)C(=O)N[C@H](C(=O)N[C@@H](CCCCN)C(N)=O)CNC3=O	PPIA (Homo sapiens, UniProt P62937)	inhibitor	–	up to 5 µM, together with: Suc-Ala-Glu-Pro-Phe-pNA	–	isomerase activity	no effect
N[C@@H](Cc1ccccc1)P(=O)(O)O	PAL1 (Petroselinum crispum, UniProt P24481, Y110F)	binding, ITC	–	–	–	-TΔS	6.28 kJ/mol
O=C1NC2(CC2)COc2ncc(F)cc2[C@H]2COCCN2c2ccn3ncc1c3n2	–	–	Sprague-Dawley rat, female, serum	oral, 10 mg/kg/day, 4 weeks daily, end of recovery period	–	total cholesterol	1.59 ± 0.14 mmol/L
CC(C)[C@H]1NC(=O)C[C@H]2/C=C/CCSSC[C@@H](NC1=O)C(=O)N[C@H](Cc1cccc3ccccc13)C(=O)NCC(=O)O2	MAP2K5 (Homo sapiens, UniProt Q13163)	–	–	10 µM	–	inhibition	2.5%
CC(C)(C)C(=O)OCOP(=O)(OCOC(=O)C(C)(C)C)C1CCCN(O)C1=O (stereo not shown)	SNB-75	–	–	–	–	log TGI	-4.54 log M
CN(C)[C@H]1C[C@@]23CC[C@@]4(O2)C(=CC[C@]2(C)[C@@H](c5ccc6ccncc6c5)CC[C@H]24)C=C3[C@@H](O)[C@@H]1O	EIF2AK3 (Homo sapiens, UniProt Q9NZJ5)	ATP probe labelling, inhibitor, KiNativ profiling	–	1 µM	–	inhibition	-0.8%
CS(C)(=O)=Nc1ccc(-c2ccc(-c3nc4cc(O[C@@H]5CO[C@H]6[C@@H]5OC[C@H]6O)[nH]c4cc3F)cc2)cc1	ABL2 (Homo sapiens, UniProt P42684)	enzyme activity, inhibitor	–	10 µM	–	inhibition	-11%
COCC1CCCCN1C(=O)n1cc(C(O)(c2ccccc2)c2ccccc2)nn1 (stereo not shown)	Palmitoyl-protein thioesterase ABHD10, mitochondrial (Mus musculus, UniProt Q6PE15)	probe labelling, inhibitor, competitive ABPP-SILAC, item: Abhd10	mouse T cells	concentration not given, 4 h, protein level	reference: treated over DMSO cells, lower = stronger inhibition	SILAC activity ratio	1.35
O=C1NC(=O)c2c1c1cc(F)c[n+]3c1c1c2c2cc(O)ccc2[n]1[Ru-4]312([N]=C=S)[S+]3CC[S+]1CC[S+]2CC3 (stereo not shown)	TYRO3 (Homo sapiens, UniProt Q06418)	enzyme activity	–	100 nM, human enzyme, together with: 10 µM ATP	reference: untreated	remaining activity	15%
COc1ccccc1-c1n[nH]c2nc(N[C@H]3CC[C@H](NS(=O)(=O)CC(C)C)CC3)ncc12	cdc2-related kinase 12 (Leishmania donovani, UniProt A0A3S7WQK2)	kinobead competition pull-down	Leishmania donovani, cell extract	0.0032 µM	reference: vehicle	remaining binding	39%
Nc1ccc(/C=C/C(=O)N2CCc3c(oc4c(-c5ccc(F)cc5)cc(-c5ccc(C(=O)N6CCC(F)(F)CC6)cn5)cc34)C2)cn1	ALK (Homo sapiens, UniProt Q9UM73)	binding, competition with immobilised ligand	–	1 µM	–	remaining binding	98%

For quick reference, copied from above:
Compound	target or system	assay	system	setting	how to read	quantity	result
N[C@@H](Cc1ccccc1)P(=O)(O)O	PAL1 (Petroselinum crispum, UniProt P24481, Y110F)	binding, ITC	–	–	–	-TΔS	6.28 kJ/mol
O=C(O)c1cccc(CP(=O)(O)O)n1	Beta-lactamase L1 (Stenotrophomonas maltophilia, UniProt P52700)	enzyme activity, inhibitor	–	together with: nitrocefin	–	koff	0.003 ± 0.0005 s⁻¹
CC[C@H](C)[C@H](NC(=O)[C@H](CO)NC(=O)[C@H](Cc1ccc(O)cc1)NC(=O)[C@H](Cc1ccc(O)cc1)NC(=O)[C@H](CC(N)=O)NC(=O)CNC(=O)[C@H](CO)NC(=O)[C@H](Cc1ccc(O)cc1)NC(=O)[C@H](CO)NC(=O)[C@H](CO)NC(=O)[C@H](CC(N)=O)NC(=O)COCCOCCNC(=O)CN1CCN(CC(=O)O)CCN(CC(=O)O)CCN(CC(=O)O)CC1)C(=O)N[C@@H](CC(C)C)C(N)=O [copper-64 labelled]	–	dynamic PET	KPC mouse, pancreatic cancer model, tumor	intravenous, 1.1 min, 49 days after tamoxifen	–	tumour uptake	13.5 %ID/mL
